Measured values of several laboratories.
Parts stem from different laboratories: compare values within a part only.

Sample 1 — method: competition protein-binding microarray; molecule type: double-stranded DNA, one strand shown; sample: in vitro; tested at: 2 µM; together with: Pho4 competitor, 0.05 µM; direction: higher = stronger binding; measurement: fluorescence intensity
Target: Centromere-binding protein 1, full length, His-tagged (CBF1, Saccharomyces cerevisiae, UniProt P17106, residues 1-351)
UniProt P17106, sequence (whole entry, looked up): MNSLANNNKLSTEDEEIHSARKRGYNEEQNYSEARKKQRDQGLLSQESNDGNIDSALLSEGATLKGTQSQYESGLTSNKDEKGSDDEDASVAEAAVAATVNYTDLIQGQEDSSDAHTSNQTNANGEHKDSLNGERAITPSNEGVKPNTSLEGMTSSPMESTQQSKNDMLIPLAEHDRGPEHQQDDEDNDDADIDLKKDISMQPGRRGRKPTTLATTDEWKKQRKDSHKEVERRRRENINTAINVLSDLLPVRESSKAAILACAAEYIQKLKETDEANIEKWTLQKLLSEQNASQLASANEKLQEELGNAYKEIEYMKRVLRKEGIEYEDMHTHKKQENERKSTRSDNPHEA
Setting: whole 60-bp probe, lowest competitor level
GGATGTCTTGTTTAGCACGTGACGGAGAACTGTGGCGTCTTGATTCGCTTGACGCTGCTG: 7090 a.u.
AAATTACTAAGTTGATAAGTGGGTGACGCCGTATGAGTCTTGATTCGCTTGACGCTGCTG: 78.9 a.u.
CATACCCAACCTTGCCGGGTGGGTGAAGATATTTGTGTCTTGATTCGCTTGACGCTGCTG: 55.9 a.u.
AAAGCGGTAATTTGTCACGCTACTTCACATATCTATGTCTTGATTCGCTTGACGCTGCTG: 280 a.u.
AAATTACTAAGTTGTCACCAAACTTACCCCGTATGAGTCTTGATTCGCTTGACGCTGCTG: 73.8 a.u.
CTAACGAAGGTTTGTCAAGTGGGTGACAAGCCAAGTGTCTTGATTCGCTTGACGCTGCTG: 70.5 a.u.

Sample 2 — method: RNA Bind-n-Seq; molecule type: RNA; sample: in vitro; tested at: 365 nM; relative to: no-protein control; direction: higher = stronger binding; measurement: RBNS enrichment (R)
Target: RNA binding protein fox-1 homolog 2, RRM domain, GST-SBP tag (RBFOX2, Homo sapiens, UniProt O43251-10, residues 100-194)
Setting: natural RNA segment, single round, ends assumed
Residues (chain): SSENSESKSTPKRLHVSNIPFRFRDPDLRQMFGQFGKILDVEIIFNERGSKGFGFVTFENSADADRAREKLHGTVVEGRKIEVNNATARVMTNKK
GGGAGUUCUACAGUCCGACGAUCAAGCUCUAGCUUAAUGUCUAUGAUUUGUUCUUUGACAUUAAGGAAGGUAAGGAUUGGUCAGAGGAUGUAACUUGAUGUGAGCAGUAGUAAACCUGUUUUAGAUAUCAUACUGGAAUUCUCGGGUGCCAA: 0.289
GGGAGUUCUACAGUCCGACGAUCAGGAUUCCAGGAAGAGGCCAUGUCUGUGCAGUCCUAGUUCCAGACAGGUGAGAAGCUCCAGGAACUACUGGCUACCUUGACAAGCUGGGUAAAUAGUUAUCAUUCUGGGUUGGAAUUCUCGGGUGCCAA: 0.572
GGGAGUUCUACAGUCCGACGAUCCUCUGAGCACAUCCAGAAGUGAUAACCUGACCCUCCACACCAAAGACACCCUGGUGCUGCUGCUGGUGAGACUGGUGUCCAAGGCAGGGCCCAGCAGAAACUGCAGCCUGUGGAAUUCUCGGGUGCCAA: 0.358
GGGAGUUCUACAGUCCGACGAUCUUGUAAAAUAUUUUCAAAUGGUUUAUUACAGAAGAUCAGUUAUUAAAUAAUGUUCAUAUUUUCACUUAAAUGGUUCCCAUCCACUGUAUCAGCUUGGGGGUGAGGACUGGUGGAAUUCUCGGGUGCCAA: 0.429
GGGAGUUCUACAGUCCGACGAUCAUUACUCCACUUUUUUUUAAGUGUCCUUCCAAUAACUAAUGCCACUCAUCAGCAUUGUCCUCUUUGGAAAUUUUGUCCUCCUGAGGAAAUGCACUUGACGAGUGCUGAAAUGGAAUUCUCGGGUGCCAA: 0.359

Sample 3 — method: protein-binding microarray; molecule type: double-stranded DNA, one strand shown; sample: in vitro; tested at: 250 nM; setting: 60-bp whole probe; together with: salmon DNA 0.4 mg/ml; relative to: random background probes; direction: higher = stronger binding; measurement: log fluorescence
Target: Interferon regulatory factor 5, full length, phosphomimetic (IRF5, Homo sapiens, UniProt Q13568-2, residues 1-514, K96S/S451D/S453D/S456D/S462D)
All sequences stand within: GCCTAGCAC … GTGCTAGGTCTTGATTCGCTTGACGCTGCTG
GACGGATTGGGACTGGGGAC: -0.427 z-score
GACGATATCGGTATCGAGAC: 5.22 z-score
GACTATCTCAGTCTCGAGAC: 0.421 z-score
TCATGTTTTAAATTCTAACT: 0.553 z-score
GACGGTATCGGTATCGCGAC: 5.43 z-score

Mixed results
PhoQ, residues 284 288 289 292 302 303 ASTSDA
fold induction (PhoP, residues 12 14 15 18 19 IFFTR (Escherichia coli, UniProt P23836); Sort-seq, refers to: YFP reporter; E. coli; PhoQ-PhoP variant library, together with: 10 µM Mg2+; relative to: high Mg2+ state, higher = stronger signaling): 4.73

Repeated from above (sample 3):
GACGGATTGGGACTGGGGAC: -0.427 z-score
TCATGTTTTAAATTCTAACT: 0.553 z-score
GACTATCTCAGTCTCGAGAC: 0.421 z-score
